# Experimental data gathered from unrelated publications.
# Each numbered part is a random draw from the data of one study; scales do not carry over between parts. Positions count from the first letter of the parent shown.

# Set 1
# Target: Prothrombin, mature alpha-thrombin (F2, Homo sapiens, UniProt P00734)
# Method: aptamer microarray, sandwich
# Molecule type: DNA with 2'F-ANA
# Sample: in vitro
# Concentration: 200 nM
# Notes: whole 15-mer aptamer, many near background
# Added: Cy3 exosite-II aptamer, 400 nM
# Direction: higher = stronger binding
# Sequence: GGTTGGTGTGGTTGG
Modification,mean fluorescence intensity [a.u.]
2'F-ANA at 1 2 7 9 10 12 14 15,65.7
2'F-ANA at 1 9,245
2'F-ANA at 1 3 5 6 8,69.4
2'F-ANA at 4 8 10 13 14 15,90.3
2'F-ANA at 4 6 7 9 10 12 13 14 15,65.4
2'F-ANA at 3 6 7 8 10 11 12 13 14,338
2'F-ANA at 9 10 11 12 13 14,116
2'F-ANA at 1 2 3 4 5 6 7 9 12,147

# Set 2
# Variant: D3L
# Target: ABI1, truncated, D143A, DHFR fusion (Arabidopsis thaliana)
# Method: DHFR PCA, deep sequencing
# Sample: yeast
# Notes: methotrexate growth selection, single substitutions
# Reference: wild-type fitted maximum
# Direction: higher = stronger binding
# Starting sequence: PYL1, truncated, DHFR fusion (Arabidopsis thaliana); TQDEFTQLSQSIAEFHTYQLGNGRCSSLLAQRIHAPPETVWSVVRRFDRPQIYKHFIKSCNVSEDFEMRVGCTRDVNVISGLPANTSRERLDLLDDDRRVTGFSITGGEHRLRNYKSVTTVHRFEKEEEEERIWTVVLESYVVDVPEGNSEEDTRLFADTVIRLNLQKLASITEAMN; partner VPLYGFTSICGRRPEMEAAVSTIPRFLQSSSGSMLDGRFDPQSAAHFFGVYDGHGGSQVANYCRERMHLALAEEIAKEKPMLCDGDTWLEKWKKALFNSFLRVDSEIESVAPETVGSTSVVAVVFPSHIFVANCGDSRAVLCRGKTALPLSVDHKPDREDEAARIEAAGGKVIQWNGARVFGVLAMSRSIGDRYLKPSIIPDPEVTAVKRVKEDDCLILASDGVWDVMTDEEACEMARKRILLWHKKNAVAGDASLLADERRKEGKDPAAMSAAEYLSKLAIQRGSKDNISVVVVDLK
conditions,relative binding score [%]
added: (+)-ABA 0 µM,27.6
added: (+)-ABA 4.8 µM,64.2
added: (+)-ABA 0.11 µM,27.9
added: (+)-ABA 2500 µM,98.2
added: (+)-ABA 0.032 µM,14
added: (+)-ABA 200 µM,99.2

# Set 3
# Target: Interferon regulatory factor 5, full length, phosphomimetic (IRF5, Homo sapiens, UniProt Q13568-2, residues 1-514, S451D/S453D/S456D/S462D)
# Method: protein-binding microarray
# Molecule type: double-stranded DNA, one strand shown
# Sample: in vitro
# Concentration: 940 nM top
# Notes: 60-bp whole probe
# Added: salmon DNA 0.4 mg/ml
# Reference: random background probes
# Direction: higher = stronger binding
# Constant ends, left off below: GCCTAGCAC … GTCTTGATTCGCTTGACGCTGCTG
Sequence,fitted relative affinity
GACGGTTTCCTTCTACTGACGTGCTAG,1.86 z-score
GACGATCTCAGTTTCGAGACGTGCTAG,4.32 z-score
GACGGACTGCTTTTCATGACGTGCTAG,-0.0657 z-score
GATGGACTGGGTCTCGGGACGTGCTAG,-0.251 z-score
TTAAGACTGGACTATCGGTTAGTGCTA,0.205 z-score
GGCCCTTTGCTTTCCTGATGGTGCTAG,0.124 z-score
TGCTGGTTTTGTGGTCTAATGTGCTAG,0.371 z-score
GACGGACTGCTTCTCCTGTCGTGCTAG,0.454 z-score

# Further values, each from its own experiment
Molecule,target,test,test system,conditions,endpoint,result
KLDFIRNTK,"HLA class I histocompatibility antigen, A alpha chain, allele A*26:03 (Homo sapiens, UniProt P04439)",peptide-MHC binding,peptide,concentration not given,binding,inactive

# For quick reference, copied from above (set 1):
Modification,mean fluorescence intensity [a.u.]
2'F-ANA at 1 2 3 4 5 6 7 9 12,147
2'F-ANA at 3 6 7 8 10 11 12 13 14,338
2'F-ANA at 1 3 5 6 8,69.4
